# Published values gathered from unrelated publications.
# Each line is one published result; not all experiments were run side by side. Numbers after ± are the reported error.
SMILES,system,setting,scale,quantity,result
CCCC[C@H](NC(=O)CCCCCCCNC(=O)c1ccc(NN)nc1)C(=O)N[C@H]1CC(=O)NCCCC[C@@H](C(N)=O)NC(=O)[C@H](Cc2c[nH]c3ccccc23)NC(=O)[C@H](CCCNC(=N)N)NC(=O)[C@@H](Cc2ccccc2)NC(=O)[C@H](Cc2c[nH]cn2)NC1=O [technetium-99m labelled],"C57 mouse, B16/F1 melanoma, heart","2 h, together with: L-lysine 12 mg co-injected",,tissue uptake,0.14 ± 0.01 %ID/g
N=C(N)NCCC[C@@H]1NC(=O)[C@H](CCCCNC(=O)CNC(=O)CNC(=O)CNC(=O)CC[C@H](NC(=O)CCOCCOCCOCCOCCNC(=O)CC[C@H](NC(=O)CN2CCN(CC(=O)O)CCN(CC(=O)O)CCN(CC(=O)O)CC2)C(=O)NCCOCCOCCOCCOCCC(=O)N[C@@H](CCC(=O)NCC(=O)NCC(=O)NCC(=O)NCCCC[C@@H]2NC(=O)[C@@H](Cc3ccccc3)NC(=O)[C@H](CC(=O)O)NC(=O)CNC(=O)[C@H](CCCNC(=N)N)NC2=O)C(=O)NCC(=O)NCC(=O)NCC(=O)NCCCC[C@@H]2NC(=O)[C@@H](Cc3ccccc3)NC(=O)[C@H](CC(=O)O)NC(=O)CNC(=O)[C@H](CCCNC(=N)N)NC2=O)C(=O)NCC(=O)NCC(=O)NCC(=O)NCCCC[C@@H]2NC(=O)[C@@H](Cc3ccccc3)NC(=O)[C@H](CC(=O)O)NC(=O)CNC(=O)[C@H](CCCNC(=N)N)NC2=O)NC(=O)[C@@H](Cc2ccccc2)NC(=O)[C@H](CC(=O)O)NC(=O)CNC1=O [indium-111 labelled],"female athymic nude mice, blood","intravenous, 3 µCi, 72 h, U-87 MG glioma xenograft",,tissue uptake,0.03 ± 0.01 %ID/g
CC(C)C[C@H](NC(=O)[C@H](Cc1ccc(O)cc1)NC(=O)[C@@H](CCCNC(=N)N)NC(=O)[C@@H](CO)NC(=O)[C@H](Cc1ccccc1)NC(=O)[C@H](CC1CCCCC1)NC(=O)[C@H](CC(=O)O)NC(=O)[C@H](CCC(=O)O)NC(=O)[C@H](CCC(=O)O)NC(=O)[C@H](CCC(=O)O)NC(=O)[C@H](CCC(=O)O)NC(=O)CCc1ccc(N(c2ccc(CCC(=O)O)cc2)c2ccc(-c3c4c(c(-c5ccc(N(c6ccc(CCC(=O)O)cc6)c6ccc(CCC(=O)O)cc6)cc5)c5nsnc35)N=S=N4)cc2)cc1)C(=O)N[C@@H](Cc1c[nH]c2ccccc12)C(=O)N[C@@H](CO)C(N)=O,"nude mouse, lungs","dose not given, ex vivo, unblocked, unit not given",baseline: liver,signal intensity,0.11
N[C@@H](Cc1ccc(O)cc1)C(=O)N[C@@H](Cc1ccccc1)C(=O)N[C@@H](Cc1ccccc1)C(=O)NCC(=O)NC12CC3CC(CC(C3)C1)C2,mouse,"intravenous, 100 µg, day 14",baseline: untreated mice,organ coefficient,no effect
CSCC[C@H](NC(=O)[C@H](CC(C)C)NC(=O)[C@H](Cc1c[nH]cn1)NC(=O)CNC(=O)[C@@H](NC(=O)[C@H](C)NC(=O)[C@H](Cc1c[nH]c2ccccc12)NC(=O)[C@H](CCC(N)=O)NC(=O)CCCCCNC(=O)CNC(=O)CNC(=O)CNC(=O)CSC(C)=O)C(C)C)C(N)=O [technetium-99m labelled],"Swiss mouse, bone","intravenous, 18.5 MBq, 90 min",,tissue uptake,0.11 ± 0.05 %ID/g
N=C(N)NCCC[C@@H]1NC(=O)[C@H](CCCCNC(=O)CC[C@H](NC(=O)CCOCCOCCOCCOCCNC(=O)CC[C@H](NC(=O)CN2CCN(CC(=O)O)CCN(CC(=O)O)CCN(CC(=O)O)CC2)C(=O)NCCOCCOCCOCCOCCC(=O)N[C@@H](CCC(=O)NCCCC[C@@H]2NC(=O)[C@@H](Cc3ccccc3)NC(=O)[C@H](CC(=O)O)NC(=O)CNC(=O)[C@H](CCCNC(=N)N)NC2=O)C(=O)NCCCC[C@@H]2NC(=O)[C@@H](Cc3ccccc3)NC(=O)[C@H](CC(=O)O)NC(=O)CNC(=O)[C@H](CCCNC(=N)N)NC2=O)C(=O)NCCCC[C@@H]2NC(=O)[C@@H](Cc3ccccc3)NC(=O)[C@H](CC(=O)O)NC(=O)CNC(=O)[C@H](CCCNC(=N)N)NC2=O)NC(=O)[C@@H](Cc2ccccc2)NC(=O)[C@H](CC(=O)O)NC(=O)CNC1=O [indium-111 labelled],"athymic nude mice, female, U-87 MG glioma xenograft, tumour and blood","intravenous, 1 h",baseline: tumour over blood,tumour to tissue ratio,34.7 ± 7.84
Cc1cc(-c2ccc(NC(=O)[C@H](CCCCNC(=O)CCOCCOCCC(=O)N[C@H](Cc3ccccc3)C(=O)N[C@H]3CSSC[C@@H](C(=O)N[C@H](C(=O)O)[C@@H](C)O)NC(=O)[C@H]([C@@H](C)O)NC(=O)[C@H](CCCCN)NC(=O)[C@@H](Cc4c[nH]c5ccccc45)NC(=O)[C@H](Cc4ccc(O)cc4)NC3=O)NC(=O)CN3CCN(CC(=O)O)CCN(CC(=O)O)CCN(CC(=O)O)CC3)c(C)c2)ccc1N=Nc1ccc2c(S(=O)(=O)O)cc(S(=O)(=O)O)c(N)c2c1O [lutetium-177 labelled],metastatic neuroendocrine tumour patients,dose escalation,,maximum tolerated dose,3.33 GBq/cycle
N=C(N)NCCC[C@@H]1NC(=O)[C@H](CCCCNC(=O)CCOCCOCCOCCOCCNC(=O)CC[C@H](NC(=O)CCOCCOCCOCCOCCNC(=O)CC[C@H](NC(=O)CN2CCN(CC(=O)O)CCN(CC(=O)O)CCN(CC(=O)O)CC2)C(=O)NCCOCCOCCOCCOCCC(=O)N[C@@H](CCC(=O)NCCOCCOCCOCCOCCC(=O)NCCCC[C@@H]2NC(=O)[C@@H](Cc3ccccc3)NC(=O)[C@H](CC(=O)O)NC(=O)CNC(=O)[C@H](CCCNC(=N)N)NC2=O)C(=O)NCCOCCOCCOCCOCCC(=O)NCCCC[C@@H]2NC(=O)[C@@H](Cc3ccccc3)NC(=O)[C@H](CC(=O)O)NC(=O)CNC(=O)[C@H](CCCNC(=N)N)NC2=O)C(=O)NCCOCCOCCOCCOCCC(=O)NCCCC[C@@H]2NC(=O)[C@@H](Cc3ccccc3)NC(=O)[C@H](CC(=O)O)NC(=O)CNC(=O)[C@H](CCCNC(=N)N)NC2=O)NC(=O)[C@@H](Cc2ccccc2)NC(=O)[C@H](CC(=O)O)NC(=O)CNC1=O [indium-111 labelled],"athymic nude mice, female, U-87 MG glioma xenograft, tumour and kidney","intravenous, 4 h",baseline: tumour over kidney,tumour to tissue ratio,1.52 ± 0.43
CCCC[C@H](NC(=O)CNC(=O)CNC(=O)c1ccc(NN)nc1)C(=O)N[C@H]1CC(=O)NCCCC[C@@H](C(N)=O)NC(=O)[C@H](Cc2c[nH]c3ccccc23)NC(=O)[C@H](CCCNC(=N)N)NC(=O)[C@@H](Cc2ccccc2)NC(=O)[C@H](Cc2c[nH]cn2)NC1=O [technetium-99m labelled],"C57 mouse, B16/F1 melanoma-bearing","intravenous, 0.5 h",baseline: tumour over muscle,tissue uptake ratio,50.9

# Some of these lines once more:
SMILES,system,setting,scale,quantity,result
CCCC[C@H](NC(=O)CNC(=O)CNC(=O)c1ccc(NN)nc1)C(=O)N[C@H]1CC(=O)NCCCC[C@@H](C(N)=O)NC(=O)[C@H](Cc2c[nH]c3ccccc23)NC(=O)[C@H](CCCNC(=N)N)NC(=O)[C@@H](Cc2ccccc2)NC(=O)[C@H](Cc2c[nH]cn2)NC1=O [technetium-99m labelled],"C57 mouse, B16/F1 melanoma-bearing","intravenous, 0.5 h",baseline: tumour over muscle,tissue uptake ratio,50.9
